# Measurements gathered from unrelated publications.
# Parts stem from different laboratories: compare values within a part only. Substitutions count along the parent as printed.

# Set 1
# Target: CEBPE, bZIP domain (human)
# Technique: DHFR protein complementation
# Matrix: yeast
# Setting: single substitutions, most at no-binding floor
# Baseline: wild-type JUN-FOS pair
# Direction: higher = stronger binding
# Parent: JUN, bZIP domain (human); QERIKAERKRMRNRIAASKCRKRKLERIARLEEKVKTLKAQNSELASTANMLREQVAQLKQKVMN; partner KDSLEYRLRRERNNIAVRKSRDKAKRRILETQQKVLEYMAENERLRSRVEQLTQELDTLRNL
Variant,binding fitness [natural log]
Q41G,-1.43
T48Y,-1.15
L52S,-1.49
L45Q,-1.46
A29Y,-1.22
M51I,-1.15
L31I,-1.41
E44L,-1.31
R53K,-0.935
T37S,-1.07
E54H,-1.29
K39G,-1.34
L52H,-1.49
V35K,-1.36
M51E,-1.07

# Set 2
# Target: Sal-like protein 4, full length isoform A (SALL4, Homo sapiens, UniProt Q9UJQ4, residues 1-1053)
# Chain of UniProt Q9UJQ4 (whole entry, looked up): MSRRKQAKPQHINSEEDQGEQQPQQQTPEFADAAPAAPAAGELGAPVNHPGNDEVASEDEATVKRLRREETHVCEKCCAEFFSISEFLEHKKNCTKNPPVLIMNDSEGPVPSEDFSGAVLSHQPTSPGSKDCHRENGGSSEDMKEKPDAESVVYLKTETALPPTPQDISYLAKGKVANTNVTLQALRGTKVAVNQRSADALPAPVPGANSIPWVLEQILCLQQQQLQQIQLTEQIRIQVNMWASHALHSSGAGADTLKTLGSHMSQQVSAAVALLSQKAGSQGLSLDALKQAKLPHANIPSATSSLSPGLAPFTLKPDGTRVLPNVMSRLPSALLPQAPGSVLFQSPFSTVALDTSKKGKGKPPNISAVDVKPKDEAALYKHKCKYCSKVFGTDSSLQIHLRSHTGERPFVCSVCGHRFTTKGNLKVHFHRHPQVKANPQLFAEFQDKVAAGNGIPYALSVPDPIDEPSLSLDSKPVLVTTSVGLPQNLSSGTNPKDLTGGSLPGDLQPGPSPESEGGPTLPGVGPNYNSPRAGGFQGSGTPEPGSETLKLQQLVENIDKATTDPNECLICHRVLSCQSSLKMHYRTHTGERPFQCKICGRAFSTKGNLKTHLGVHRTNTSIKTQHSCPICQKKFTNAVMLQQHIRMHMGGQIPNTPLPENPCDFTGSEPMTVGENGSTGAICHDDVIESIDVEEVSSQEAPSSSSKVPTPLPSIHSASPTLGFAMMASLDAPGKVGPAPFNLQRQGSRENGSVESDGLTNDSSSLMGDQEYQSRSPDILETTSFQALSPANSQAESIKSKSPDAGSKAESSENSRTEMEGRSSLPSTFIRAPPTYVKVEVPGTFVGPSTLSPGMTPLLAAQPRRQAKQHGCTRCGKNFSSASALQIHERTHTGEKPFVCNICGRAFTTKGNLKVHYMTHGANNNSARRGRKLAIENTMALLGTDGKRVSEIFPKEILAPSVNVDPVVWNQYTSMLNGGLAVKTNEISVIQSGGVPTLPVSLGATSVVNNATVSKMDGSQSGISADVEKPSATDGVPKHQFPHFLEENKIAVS
# Technique: universal PBM
# Form: double-stranded DNA, one strand shown
# Matrix: in vitro
# Concentration: 600 nM
# Setting: 8-mer, flanks averaged, mean of replicates
# Direction: higher = stronger binding
Strand,E-score
CAATCACA,0.193
ACAATGGA,0.117
ACGACTTA,0.0143
AGATTGAA,0.226
AATCGAAC,0.018
AGCTCGGA,-0.261
CCGTCCAC,-0.167
ACTATCGC,0.0354
AGGCCTAA,-0.0664
CAACACTC,-0.0273
GACTAAAC,-0.121
CAGTTGCC,-0.0915
TCGGCTCA,-0.217
ATTCCTCG,-0.0344
ACTGACCA,-0.189
CGTCCTGC,-0.229
CGTTAGAC,0.055
CGCAACGC,-0.159
TATTGAGA,0.299
GGAATGAA,0.213
TAGTCAAA,0.276
GCTTGTCA,0.041
ACGCAGAC,-0.0993
CGCCAACG,-0.289

# Set 3
# Target: CCNB1, cyclin fold, Cln2 fusion (human)
# Technique: yeast growth competition, sequencing
# Matrix: yeast
# Setting: weak parent motif
# Baseline: not given
# Direction: higher = stronger binding
# Parent: REPIN1 docking peptide (human); QSFRGWVALVLHL
Variant,normalised enrichment score
QSFRGWVALVAHL [L11A],0.549
QAFRGWVALVLHL [S2A],0.446
QSFRGWVALVLHA [L13A],0.761
QSFRGAVALVLHL [W6A],-0.136
QSFRGWVAAVLHL [L9A],-0.513
QSFRGWVALALHL [V10A],0.00494

# Set 4
# Target: RNA binding protein fox-1 homolog 2, RRM domain, GST-SBP tag (RBFOX2, Homo sapiens, UniProt O43251-10, residues 100-194)
# Technique: RNA Bind-n-Seq
# Form: RNA
# Matrix: in vitro
# Concentration: 365 nM
# Setting: natural RNA segment, single round, ends assumed
# Baseline: no-protein control
# Direction: higher = stronger binding
# Residues (chain): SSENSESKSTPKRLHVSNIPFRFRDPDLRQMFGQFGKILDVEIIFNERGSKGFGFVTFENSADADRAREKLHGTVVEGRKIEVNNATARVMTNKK
Strand,RBNS enrichment (R)
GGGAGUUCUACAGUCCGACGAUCGGUGGGGGCUCCUGCCCUCCUCCAACAACCCAGGACACCCACGCCUCACCCCUCGGUGCCUGGGCCCAGCCCCGUGCCCCUCCGUCUGCCUCCGCACGGCUGGCAGAGGGUGGAAUUCUCGGGUGCCAA,0.4
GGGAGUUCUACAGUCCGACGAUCUUGCGUCACGUGGACCAGGGACAGUGCUGAAAUCAGCAGUGCUCAGAAACAAUUUAACAUGUUGAAACGACAAUAUUCUAAAAUACUGAUGAAUCUUGCAUCAAUAUAAUUGGAAUUCUCGGGUGCCAA,0.334
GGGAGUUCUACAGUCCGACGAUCAGGGGCUCCCAGCCCUCCUUCCCAGGCUGAUGCUGGGUCCUCUCUCUCUUUGGGGCUUCUCCCUCCCGUUUCAGGGGAAAGGUCUGAGUCUCCACGUUUCAGACCAGCUUUGGAAUUCUCGGGUGCCAA,0.24
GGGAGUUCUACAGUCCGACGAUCAAACAAAUCUUGUUGCUGAUUUGUCCAUUUCUUUCCCUGCACUUUGUUACAUCUGGGAUACAGUCUAACUCAUCUGACUUAAUAUGCAUUUAAAAAAAUGCCAUAACUAUUGGAAUUCUCGGGUGCCAA,0.44
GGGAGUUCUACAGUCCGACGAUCGGAAGCUUAGGGCACAUUGGUUCCAGCCUAGCCAGUUUCUCACCCUGGGUUGGGGUCCCCCAGCAUCCAGACUGGAAACCUACCCAUUUUCCCCUGAGCAUCCUCUAGAUUGGAAUUCUCGGGUGCCAA,0.392
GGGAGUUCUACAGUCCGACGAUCCCUUCUUCUCUCUCCUUUGGCGUUUGUUCCUGUAGUCACUGGGCUAAUCUCCCCCUAGCUUCAAGCUGUACAUAGGGCCUCCCAGUGCAAAUCCUCCUGCCCAUACCGUGUGGAAUUCUCGGGUGCCAA,0.809
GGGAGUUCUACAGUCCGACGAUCCAGGGCUUUUUAUAACUAAAACCAGUUCACUAGAGACCUAGGAAUGGGCUGGGCUGAAAGUGAAAUAUUUUCUCCCUGGAUUUUUACCAGCCAUCACCUUGGACCACCAAUGGAAUUCUCGGGUGCCAA,0.373
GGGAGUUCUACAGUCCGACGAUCAGUGCACCGUCUGCUCUGUGAACUCCUCCCACCAGGCCCUUCUUACCCCACGCGUGUCUGUCCCCCUCGUUCUGUAGCGUUUGUACAUAAUAAAACAAUGGAGUGGAGACUGGAAUUCUCGGGUGCCAA,0.5
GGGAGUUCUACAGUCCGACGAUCACCCUUGAAGCGUCCAACUCAUGUGCAUGAUCAUGCAAGCUGUUUUCAUGGCUCACCCCUCUGUGUCCAGCAUCUAACCUUUUACUUCUGUGUAGGAAAUAAUUUAAUUAUGGAAUUCUCGGGUGCCAA,4.16
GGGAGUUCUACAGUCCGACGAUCUGGCUUCAAAUCCUUUGGGAAGGGUGACUGUUGUUUCCCCUACACACAGUGUAAGCCGGAAUGGGAAUCGCUGAGGCUCUGAUCCACUUCUAAGACAGGAAGGAAAGUGAUGGAAUUCUCGGGUGCCAA,0.467
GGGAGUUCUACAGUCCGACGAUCUGCUUCACUGAUCUUAAGUAUUAUCGGUUUGCUGUCUCAACUAGCAGUAGACAUUGAAACCAGAGAUUGUCUUCAGAAUACAUAUAAUCUGAAUAGUGUGCUGGCGGGAGUGGAAUUCUCGGGUGCCAA,0.33
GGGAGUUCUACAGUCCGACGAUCAACAUCAGGAAGUUAAUUUGGCUGGCAAAAUUCUAGGGAAACUUGGCCAGAAAACUGGUGUUGAAGGCUUUUGCUCAUAUAAACAAGUGCCAUUGAGUUUCAAAUGACCAUGGAAUUCUCGGGUGCCAA,0.362

# Set 5
# Target: Interferon regulatory factor 7, full length, phosphomimetic (IRF7, Homo sapiens, UniProt Q92985, residues 1-503, S101K/S471D/S472D/S475D/S476D/S477D/S483D/S484D/S487D)
# Technique: protein-binding microarray
# Form: double-stranded DNA, one strand shown
# Matrix: in vitro
# Concentration: 250 nM
# Setting: 60-bp whole probe
# With: salmon DNA 0.4 mg/ml
# Baseline: random background probes
# Direction: higher = stronger binding
# All sequences stand within: GCCTAGCAC … GTCTTGATTCGCTTGACGCTGCTG
# Construct (chain): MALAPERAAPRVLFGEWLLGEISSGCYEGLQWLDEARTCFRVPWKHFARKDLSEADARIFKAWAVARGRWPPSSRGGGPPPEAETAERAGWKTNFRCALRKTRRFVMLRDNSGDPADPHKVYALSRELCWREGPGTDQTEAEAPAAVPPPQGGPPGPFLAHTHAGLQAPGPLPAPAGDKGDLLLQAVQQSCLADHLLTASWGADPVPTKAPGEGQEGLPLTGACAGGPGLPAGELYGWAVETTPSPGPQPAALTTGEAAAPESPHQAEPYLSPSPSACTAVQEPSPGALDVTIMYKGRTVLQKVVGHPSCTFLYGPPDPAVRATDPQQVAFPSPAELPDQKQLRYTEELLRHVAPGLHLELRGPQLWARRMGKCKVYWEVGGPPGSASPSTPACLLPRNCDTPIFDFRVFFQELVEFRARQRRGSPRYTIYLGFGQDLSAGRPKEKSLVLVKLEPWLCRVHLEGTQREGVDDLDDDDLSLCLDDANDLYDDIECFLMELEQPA
Strand,log fluorescence [z-score]
TCATAACTCATTTTCATACTGTGCTAG,0.436
TTAGGTTTCCTTTTCCTTCAGTGCTAG,6.66
TCAGGTAGCCTTATCCCTAAGTGCTAG,-0.553
TTAGGACTGGGTTTCGGGTAGTGCTAG,3.47
TTAGGACTGGGGTTTTGGTTAGTGCTA,0.422
TCACACATTTTTTTCATACTGTGCTAG,0.818
TTAGGACGGCTTTTCCTTTAGTGCTAG,-0.0908
TTAGGACTGGGTCGCGGTTAGTGCTAG,0.45
GACGATATCGGGTCTCGAGACGTGCTA,0.0622
GACGGTATCGGGAGTGGGGACGTGCTA,-0.489
TTAGATCTCGGTATCGGTTAGTGCTAG,1.59
TCACTTTCCTTCTTGAAACTGTGCTAG,2.76
GACGCTATCGGACTGGGGACGTGCTAG,-0.11
ATAGATATCAGTCTCGATTAGTGCTAG,1.48
TTAGGTATCGACACTGGGTGAGTGCTA,0.107
GACGGACTGCTTTTCGTGACGTGCTAG,0.0382
TTAGGTATCGTTTTCCTTTAGTGCTAG,6.34
CTAGTTTCCATTTTCAGAATGTGCTAG,11.4
GACGATATCGGGACTGGAGTCGTGCTA,-0.231
AACGATATCAGTTTCGAGACGTGCTAG,4.18
TCAGATCTCAGACTGTGACTGTGCTAG,-0.145
TCATTCCTCTTTCTTTGACTGTGCTAG,2.68
TCACATTTTGGTTTTCAACTGTGCTAG,0.979
TTAGGTCTCGGTTCCGGTTAGTGCTAG,5.45
TTAGATTTCGCGTTTCGATTAGTGCTA,4.06

# Set 6
# Target: Histone acetyltransferase KAT6A, winged helix 1, GST fusion (KAT6A, Homo sapiens, UniProt Q92794, residues 1-85)
# Technique: protein binding microarray
# Form: double-stranded DNA, one strand shown
# Matrix: in vitro
# Concentration: not given
# Setting: 8-mer, flanks averaged, mean of 2 arrays, mostly near background
# Baseline: not given
# Direction: higher = stronger binding
# Construct (chain): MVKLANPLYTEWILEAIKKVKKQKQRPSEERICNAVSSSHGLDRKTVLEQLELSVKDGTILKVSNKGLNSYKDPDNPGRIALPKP
Strand,E-score
GATGGGCC,-0.0231
ACCCGGGG,0.279
CCTTTCAG,0.0178
GCTGGATA,-0.252
TAGGACGA,-0.126
ACGTCGCC,0.122
CCACAAAG,-0.191
GAGCGCCC,0.263
ATATAGAT,-0.153
GCAGTACA,-0.0704
CAAATTCG,-0.0385
TGCGACCA,0.118
AGATTTGC,-0.0473
GAAGTTCA,-0.095
GCGCCCTA,0.29
ATAACCGG,0.225
CCGTTTCG,0.189
AACGCCAT,0.056
GCAGACTA,0.0679
GAACACTC,0.0209
ATCGAATG,-0.154
CCTGACGA,-0.234
CGGTAGTC,0.284
AGTTTGGG,-0.168
AATAGACG,0.0186

# Other studies, line by line
Substance,target,assay,test system,conditions,how to read,endpoint,result
"PhoQ, residues 284 288 289 292 302 303 SVTLVV","PhoP, residues 12 14 15 18 19 TQAIL (Escherichia coli, UniProt P23836)","Sort-seq, measured: YFP reporter",E. coli,"PhoQ-PhoP variant library, with: 10 µM Mg2+","baseline: high Mg2+ state, higher = stronger signaling",fold induction,17.1

# Repeated from above (set 1):
Variant,binding fitness [natural log]
Q41G,-1.43
T48Y,-1.15
L52S,-1.49
L45Q,-1.46
A29Y,-1.22
M51I,-1.15
